Results of several laboratories.
A part holds a random share of what one study measured. Several values in a cell are separate wells, animals, samples, runs or records.
Sequence of UniProt Q02750 (whole entry, looked up): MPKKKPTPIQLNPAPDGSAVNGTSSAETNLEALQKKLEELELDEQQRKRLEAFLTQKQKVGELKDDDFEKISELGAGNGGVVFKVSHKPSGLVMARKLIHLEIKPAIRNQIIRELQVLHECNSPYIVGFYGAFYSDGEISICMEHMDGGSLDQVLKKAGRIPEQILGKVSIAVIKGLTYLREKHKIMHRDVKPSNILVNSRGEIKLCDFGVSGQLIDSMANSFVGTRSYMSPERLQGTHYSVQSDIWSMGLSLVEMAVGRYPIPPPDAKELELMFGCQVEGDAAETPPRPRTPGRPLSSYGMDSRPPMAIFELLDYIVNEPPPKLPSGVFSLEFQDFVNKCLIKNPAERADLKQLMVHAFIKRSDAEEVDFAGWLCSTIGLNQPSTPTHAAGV
Sequence of UniProt Q56UN5 (whole entry, looked up): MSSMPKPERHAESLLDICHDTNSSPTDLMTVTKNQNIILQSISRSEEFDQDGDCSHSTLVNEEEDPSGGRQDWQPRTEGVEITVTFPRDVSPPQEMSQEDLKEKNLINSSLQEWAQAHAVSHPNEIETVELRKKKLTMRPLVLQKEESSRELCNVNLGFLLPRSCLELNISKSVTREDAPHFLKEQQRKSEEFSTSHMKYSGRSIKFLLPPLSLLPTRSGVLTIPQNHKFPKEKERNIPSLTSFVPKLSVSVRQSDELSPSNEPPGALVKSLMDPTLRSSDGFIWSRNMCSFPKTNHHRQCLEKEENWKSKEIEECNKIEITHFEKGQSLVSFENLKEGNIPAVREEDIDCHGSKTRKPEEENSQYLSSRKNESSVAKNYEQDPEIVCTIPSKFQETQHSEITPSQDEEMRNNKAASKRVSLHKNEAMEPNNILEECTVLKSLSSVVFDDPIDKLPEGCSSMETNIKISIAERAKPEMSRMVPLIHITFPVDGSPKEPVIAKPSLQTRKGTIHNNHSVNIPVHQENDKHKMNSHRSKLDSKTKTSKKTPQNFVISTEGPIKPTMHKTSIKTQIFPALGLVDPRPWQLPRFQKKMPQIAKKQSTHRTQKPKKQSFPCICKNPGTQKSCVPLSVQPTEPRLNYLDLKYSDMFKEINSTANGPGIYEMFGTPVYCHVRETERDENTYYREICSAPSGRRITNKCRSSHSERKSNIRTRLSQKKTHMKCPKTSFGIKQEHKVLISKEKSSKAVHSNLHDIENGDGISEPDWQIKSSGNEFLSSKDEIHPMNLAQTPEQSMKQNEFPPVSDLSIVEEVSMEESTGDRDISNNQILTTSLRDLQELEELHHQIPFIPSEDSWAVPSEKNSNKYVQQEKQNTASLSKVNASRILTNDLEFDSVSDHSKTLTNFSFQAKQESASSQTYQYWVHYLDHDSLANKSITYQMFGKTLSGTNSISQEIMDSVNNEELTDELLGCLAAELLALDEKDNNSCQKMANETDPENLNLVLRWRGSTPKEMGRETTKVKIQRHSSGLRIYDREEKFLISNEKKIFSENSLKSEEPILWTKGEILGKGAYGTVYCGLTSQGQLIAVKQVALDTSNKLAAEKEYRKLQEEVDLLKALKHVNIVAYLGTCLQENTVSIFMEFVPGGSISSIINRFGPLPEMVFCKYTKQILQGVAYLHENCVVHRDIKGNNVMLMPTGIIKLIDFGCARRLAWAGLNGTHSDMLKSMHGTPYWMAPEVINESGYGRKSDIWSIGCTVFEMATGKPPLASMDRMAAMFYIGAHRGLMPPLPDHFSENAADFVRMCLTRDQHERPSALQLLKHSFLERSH
Sequence of UniProt Q9BWU1 (whole entry, looked up): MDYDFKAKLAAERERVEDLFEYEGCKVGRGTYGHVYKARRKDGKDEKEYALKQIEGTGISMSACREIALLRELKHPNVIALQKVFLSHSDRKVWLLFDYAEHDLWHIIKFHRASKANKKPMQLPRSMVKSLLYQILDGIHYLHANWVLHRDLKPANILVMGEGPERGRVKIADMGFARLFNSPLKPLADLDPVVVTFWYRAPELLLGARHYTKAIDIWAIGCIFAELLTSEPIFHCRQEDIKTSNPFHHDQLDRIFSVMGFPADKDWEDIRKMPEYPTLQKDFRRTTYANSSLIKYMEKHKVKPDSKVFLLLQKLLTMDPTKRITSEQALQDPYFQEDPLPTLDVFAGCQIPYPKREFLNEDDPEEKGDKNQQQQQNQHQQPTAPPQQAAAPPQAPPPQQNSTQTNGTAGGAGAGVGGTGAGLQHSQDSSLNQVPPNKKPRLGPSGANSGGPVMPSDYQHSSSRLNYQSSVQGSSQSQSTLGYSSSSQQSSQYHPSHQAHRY
Sequence of UniProt P51956 (whole entry, looked up): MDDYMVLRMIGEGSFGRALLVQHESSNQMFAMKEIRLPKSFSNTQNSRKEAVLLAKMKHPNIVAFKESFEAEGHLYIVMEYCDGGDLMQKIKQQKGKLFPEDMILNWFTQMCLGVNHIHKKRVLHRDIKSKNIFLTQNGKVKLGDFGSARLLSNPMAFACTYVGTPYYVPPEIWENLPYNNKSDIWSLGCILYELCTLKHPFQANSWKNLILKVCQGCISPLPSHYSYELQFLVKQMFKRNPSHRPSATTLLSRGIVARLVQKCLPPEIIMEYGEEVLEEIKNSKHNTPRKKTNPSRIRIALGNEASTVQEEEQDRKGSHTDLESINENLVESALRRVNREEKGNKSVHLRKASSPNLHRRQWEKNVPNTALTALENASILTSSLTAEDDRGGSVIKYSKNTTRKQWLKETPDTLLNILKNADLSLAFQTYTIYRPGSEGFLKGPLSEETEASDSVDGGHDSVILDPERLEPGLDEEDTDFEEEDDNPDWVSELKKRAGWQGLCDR
Sequence of UniProt Q14004 (whole entry, looked up): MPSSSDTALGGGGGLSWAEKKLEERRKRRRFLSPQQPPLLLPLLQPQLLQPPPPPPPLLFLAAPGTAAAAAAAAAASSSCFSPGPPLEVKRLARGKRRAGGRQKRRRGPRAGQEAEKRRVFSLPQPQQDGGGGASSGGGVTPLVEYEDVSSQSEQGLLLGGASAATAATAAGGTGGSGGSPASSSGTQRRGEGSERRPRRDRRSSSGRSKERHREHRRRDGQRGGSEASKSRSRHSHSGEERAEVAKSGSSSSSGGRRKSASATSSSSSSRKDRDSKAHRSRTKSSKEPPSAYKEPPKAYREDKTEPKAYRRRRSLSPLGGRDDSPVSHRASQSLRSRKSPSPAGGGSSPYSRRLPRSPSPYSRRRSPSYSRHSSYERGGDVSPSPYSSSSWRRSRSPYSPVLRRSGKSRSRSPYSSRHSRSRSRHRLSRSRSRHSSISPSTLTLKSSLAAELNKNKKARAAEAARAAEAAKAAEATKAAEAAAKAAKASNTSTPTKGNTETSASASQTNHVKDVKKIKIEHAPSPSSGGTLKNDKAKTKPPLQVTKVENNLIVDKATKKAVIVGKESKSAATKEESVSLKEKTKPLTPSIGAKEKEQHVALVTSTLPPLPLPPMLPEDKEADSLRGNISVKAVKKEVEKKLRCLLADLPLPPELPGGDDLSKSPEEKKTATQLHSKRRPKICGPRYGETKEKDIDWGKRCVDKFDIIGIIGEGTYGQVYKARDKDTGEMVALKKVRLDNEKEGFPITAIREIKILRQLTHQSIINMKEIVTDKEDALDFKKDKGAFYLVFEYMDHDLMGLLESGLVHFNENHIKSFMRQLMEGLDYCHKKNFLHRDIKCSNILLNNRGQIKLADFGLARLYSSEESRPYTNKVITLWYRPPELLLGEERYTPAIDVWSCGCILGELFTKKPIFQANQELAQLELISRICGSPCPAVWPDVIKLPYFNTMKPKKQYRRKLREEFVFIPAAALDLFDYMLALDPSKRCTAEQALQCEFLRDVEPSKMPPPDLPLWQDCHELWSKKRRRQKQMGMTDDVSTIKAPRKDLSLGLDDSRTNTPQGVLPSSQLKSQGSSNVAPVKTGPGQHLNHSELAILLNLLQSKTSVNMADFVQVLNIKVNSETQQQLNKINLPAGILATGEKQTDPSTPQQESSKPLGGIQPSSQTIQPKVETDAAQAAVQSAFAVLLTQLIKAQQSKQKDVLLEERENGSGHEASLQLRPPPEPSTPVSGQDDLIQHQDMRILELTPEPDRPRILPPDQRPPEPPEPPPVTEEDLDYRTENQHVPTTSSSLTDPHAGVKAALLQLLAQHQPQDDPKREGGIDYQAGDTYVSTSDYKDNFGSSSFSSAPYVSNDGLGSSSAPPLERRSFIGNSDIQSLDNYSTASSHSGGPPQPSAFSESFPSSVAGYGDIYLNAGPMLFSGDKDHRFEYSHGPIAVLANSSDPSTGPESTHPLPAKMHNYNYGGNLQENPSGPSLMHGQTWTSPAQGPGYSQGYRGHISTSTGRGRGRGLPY

Block 1 — read-out: enzyme activity; mode: inhibitor; tested at: 0.5 µM; relative to: control
Target: Serine/threonine-protein kinase PLK1 (PLK1, Homo sapiens, UniProt P53350)
Sequence of UniProt P53350 (whole entry, looked up): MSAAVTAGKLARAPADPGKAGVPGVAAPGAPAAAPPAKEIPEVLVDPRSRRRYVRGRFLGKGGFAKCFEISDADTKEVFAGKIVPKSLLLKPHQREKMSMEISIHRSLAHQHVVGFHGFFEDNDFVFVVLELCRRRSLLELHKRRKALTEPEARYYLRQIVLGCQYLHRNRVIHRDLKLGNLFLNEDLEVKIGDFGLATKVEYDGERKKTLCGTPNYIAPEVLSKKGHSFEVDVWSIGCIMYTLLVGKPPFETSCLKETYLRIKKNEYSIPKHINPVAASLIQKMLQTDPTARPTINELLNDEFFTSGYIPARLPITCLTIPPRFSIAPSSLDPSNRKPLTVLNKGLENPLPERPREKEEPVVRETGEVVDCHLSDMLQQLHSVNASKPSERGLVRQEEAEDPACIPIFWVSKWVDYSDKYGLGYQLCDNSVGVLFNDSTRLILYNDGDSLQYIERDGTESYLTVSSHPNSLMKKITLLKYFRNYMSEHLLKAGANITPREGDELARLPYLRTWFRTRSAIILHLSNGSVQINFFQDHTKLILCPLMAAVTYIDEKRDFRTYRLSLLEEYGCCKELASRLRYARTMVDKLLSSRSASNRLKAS
| SMILES | remaining activity |
| --- | --- |
| Nc1ncnc2c1cnn2-c1ccccc1 | 98.9% |
| CC#CC(=O)Nc1cc2c(Nc3ccc(F)c(Cl)c3)ncnc2cn1 | 99.3% |
| O=S(=O)(NCCNC/C=C/c1ccc(Br)cc1)c1cccc2cnccc12 | 98.7% |
| Fc1ccc(-c2nc3n(c2-c2ccncc2)CCS3)cc1 | 101% |
| Nc1nccc(-c2c(-c3ccc(F)cc3)ncn2C2CCNCC2)n1 | 101% |
| NC(=O)c1ccc(N(C(N)=O)c2c(F)cccc2F)nc1-c1ccc(F)cc1F | 95.1% |
| Oc1ccc(Nc2nc(-c3ccc(Cl)cc3)cs2)cc1 | 106% |
| Nc1nc(Nc2ccc(S(N)(=O)=O)cc2)nn1C(=O)c1c(F)cccc1F | 97.5% |
| CC(=O)c1ccc(N2CCOCC2)cc1O | 94.3% |
| CC(C)(C)n1nc(Cc2cccc3ccccc23)c2c(N)ncnc21 | 98.1% |
| CCc1[nH]c(-c2ccc(OC)cc2)nc1-c1ccncc1 | 103% |
| CC[n+]1c(/C=C/N(C)c2ccccc2)n(-c2ccccc2)c2ccc(-c3nc4ccccc4s3)cc21 | 110% |
| Cc1ccc(NC2=CC(=O)c3sc(C)nc3C2=O)cc1 | 86.8% |
| CSc1nc(-c2ccnc(N[C@@H](C)c3ccccc3)c2)c(-c2ccc(F)cc2)[nH]1 (racemic) | 99.1% |
| COc1ccc(S(=O)(=O)N(CCO)c2ccccc2CN(C)CC=Cc2ccc(Cl)cc2)cc1 | 98.8% |
| O=C1Cc2c([nH]c3ccc([N+](=O)[O-])cc23)-c2ccccc2N1 | 98% |
| Cc1cc(Nc2nc(-c3ccccc3)nc3ccccc23)n[nH]1 | 97.1% |
| N#CC(=C(N)Sc1ccc(N)cc1)c1ccccc1C(F)(F)F | 92.6% |
| CCCC(=O)Oc1ccc2[nH]c(C(=O)c3cc4ccccc4[nH]3)cc2c1 | 101% |
| O=C1NC(=O)C(c2c[nH]c3ccccc23)=C1c1c[nH]c2ccccc12 | 94.5% |
| Cc1cncc2cccc(S(=O)(=O)N3CCCN(C(=O)CN)C[C@@H]3C)c12 | 101% |

Block 2 — tested at: 1 µM
SMILES: O=C(NS(=O)(=O)c1ccc(NCC2CCOCC2)c([N+](=O)[O-])c1)c1ccc(N2CCN(Cc3ccc(C(F)(F)F)cc3-c3ccc(Cl)cc3)CC2)cc1Oc1cnc2[nH]ccc2c1
| target | read-out | technique | remaining binding [%] |
| --- | --- | --- | --- |
| MAP3K19 (Homo sapiens, UniProt Q56UN5) | cell-free assay | competition with immobilised ligand | 71 |
| MAP3K6 (Homo sapiens, UniProt O95382) | cell-free assay | competition with immobilised ligand | 80 |
| MAP2K4 (Homo sapiens, UniProt P45985) | cell-free assay | competition with immobilised ligand | 100 |
| BMPR2 (Homo sapiens, UniProt Q13873) | cell-free assay | competition with immobilised ligand | 100 |
| MAP3K4 (Homo sapiens, UniProt Q9Y6R4) | cell-free assay | competition with immobilised ligand | 94 |
| MET (Homo sapiens, UniProt P08581, M1250T) | cell-free assay | competition with immobilised ligand | 86 |
| WEE1 (Homo sapiens, UniProt P30291) | cell-free assay | competition with immobilised ligand | 100 |
| CDK13 (Homo sapiens, UniProt Q14004) | cell-free assay | competition with immobilised ligand | 63 |
| CSNK1A1L (Homo sapiens, UniProt Q8N752) | cell-free assay | competition with immobilised ligand | 100 |
| NEK3 (Homo sapiens, UniProt P51956) | cell-free assay | competition with immobilised ligand | 85 |
| STK32C (Homo sapiens, UniProt Q86UX6) | cell-free assay | competition with immobilised ligand | 55 |
| CDK19 (Homo sapiens, UniProt Q9BWU1) |  | competition binding | 90 |
| DMPK (Homo sapiens, UniProt Q09013) | cell-free assay | competition with immobilised ligand | 100 |
| MAP2K1 (Homo sapiens, UniProt Q02750) | cell-free assay | competition with immobilised ligand | 92 |
| EGFR (Homo sapiens, UniProt P00533, del747-750/T751S) | cell-free assay | competition with immobilised ligand | 88 |
| PLK1 (Homo sapiens, UniProt P53350) | cell-free assay | competition with immobilised ligand | 90 |

Block 3 — route: subcutaneous; time: 5 days
SMILES: CC(=O)N[C@@H](Cc1c[nH]c2ccccc12)C(=O)N[C@@H](CCC(=O)C=[N+]=[N-])C(=O)OC(C)C
| assay | test system | setting | scale | metabolite peak intensity |
| --- | --- | --- | --- | --- |
| LC-MS/MS, item: carotene diol (1) | C57BL/6 CES1-/- mice, EL4 tumour | 0.3 mg/kg DON equivalent |  | 123000 a.u. and 290000 a.u. and 278000 a.u. and 298000 a.u. and 173000 a.u. and 242000 a.u. |
| LC-MS/MS metabolomics, item: methionine sulfoxide | C57BL/6 CES1-/- mice, EL4 tumour, EL4 tumour | 0.3 mg/kg/day DON equivalent | higher = more metabolite | 5.25e+07 a.u. and 4.75e+07 a.u. and 4.3e+07 a.u. and 5.57e+07 a.u. and 5.08e+07 a.u. and 4.22e+07 a.u. |
| UPLC-MS/MS metabolomics, item: N-acetylglucosamine/N-acetylgalactosamine | C57BL/6 CES1-/- mice, EL4 tumour, EL4 tumour | 0.3 mg/kg/day DON equivalent, normalised to tissue mass | higher = more metabolite | 1.03e+07 a.u. and 1.12e+07 a.u. and 8.48e+06 a.u. and 7.02e+06 a.u. and 8.41e+06 a.u. and 1.13e+07 a.u. |
| UPLC-MS/MS metabolomics, item: glucose | C57BL/6 CES1-/- mice, EL4 tumour, EL4 tumour | 0.3 mg/kg/day DON equivalent, normalised to tissue mass |  | 3.36e+08 a.u. and 5.57e+08 a.u. and 2.4e+08 a.u. and 1.31e+08 a.u. and 2.49e+08 a.u. and 9.59e+08 a.u. |
| UPLC-MS/MS metabolomics, item: gamma-glutamylvaline | C57BL/6 CES1-/- mice, EL4 tumour, EL4 tumour | 0.3 mg/kg/day DON equivalent, normalised to tissue mass |  | 1.2e+06 a.u. and 703000 a.u. and 1.07e+06 a.u. and 844000 a.u. and 744000 a.u. and 858000 a.u. |
| UPLC-MS/MS metabolomics, item: gamma-glutamylisoleucine | C57BL/6 CES1-/- mice, EL4 tumour, EL4 tumour | 0.3 mg/kg/day DON equivalent, normalised to tissue mass |  | 318000 a.u. and 279000 a.u. and 178000 a.u. and 111000 a.u. and 336000 a.u. |
| UPLC-MS/MS metabolomics, item: gamma-glutamyl-alpha-lysine | C57BL/6 CES1-/- mice, EL4 tumour, EL4 tumour | 0.3 mg/kg/day DON equivalent, normalised to tissue mass |  | 418000 a.u. and 434000 a.u. and 383000 a.u. and 506000 a.u. and 530000 a.u. and 382000 a.u. |
| UPLC-MS/MS, item: heme | EL4, C57BL/6 CES1-/- mice, EL4 tumour, tumour | 0.3 mg/kg/day DON equivalent, normalised to tissue mass | higher = more metabolite | 1.46e+07 a.u. and 1.86e+06 a.u. and 4.18e+06 a.u. and 2.94e+06 a.u. and 8.78e+06 a.u. and 1.63e+07 a.u. |
| UPLC-MS/MS metabolomics, item: glucose 6-phosphate | C57BL/6 CES1-/- mice, EL4 tumour, EL4 tumour | 0.3 mg/kg/day DON equivalent, normalised to tissue mass |  | 6.94e+07 a.u. and 4.52e+07 a.u. and 7.2e+07 a.u. and 6.39e+07 a.u. and 5.98e+07 a.u. and 5.73e+07 a.u. |
| UPLC-MS/MS, item: homocitrulline | EL4, C57BL/6 CES1-/- mice, EL4 tumour, tumour | 0.3 mg/kg/day DON equivalent, normalised to tissue mass | higher = more metabolite | 1.01e+06 a.u. and 886000 a.u. and 952000 a.u. and 1.28e+06 a.u. and 802000 a.u. and 1.53e+06 a.u. |

Block 4 — technique: LC-MS/MS; item: methionine; host: human; matrix: plasma; route: oral
SMILES: COc1ccc(-c2c(Nc3ccccn3)[nH]c3c(C4=CCCCC4)c(-c4ccccc4)nn3c2=O)cc1
| dose | change from baseline |
| --- | --- |
| 400 mg once daily | 119000 ng/mL and 70300 ng/mL and 103000 ng/mL and 122000 ng/mL and 56900 ng/mL and 43000 ng/mL |
| 50 mg once daily | 86200 ng/mL and 92700 ng/mL and 32900 ng/mL |
| 150 mg once daily | 82500 ng/mL and 221000 ng/mL and 102000 ng/mL and 190000 ng/mL and 103000 ng/mL |

A few entries again (block 3):
| assay | test system | setting | scale | metabolite peak intensity |
| --- | --- | --- | --- | --- |
| UPLC-MS/MS, item: homocitrulline | EL4, C57BL/6 CES1-/- mice, EL4 tumour, tumour | 0.3 mg/kg/day DON equivalent, normalised to tissue mass | higher = more metabolite | 1.01e+06 a.u. and 886000 a.u. and 952000 a.u. and 1.28e+06 a.u. and 802000 a.u. and 1.53e+06 a.u. |
| UPLC-MS/MS metabolomics, item: glucose | C57BL/6 CES1-/- mice, EL4 tumour, EL4 tumour | 0.3 mg/kg/day DON equivalent, normalised to tissue mass |  | 3.36e+08 a.u. and 5.57e+08 a.u. and 2.4e+08 a.u. and 1.31e+08 a.u. and 2.49e+08 a.u. and 9.59e+08 a.u. |
| LC-MS/MS, item: carotene diol (1) | C57BL/6 CES1-/- mice, EL4 tumour | 0.3 mg/kg DON equivalent |  | 123000 a.u. and 290000 a.u. and 278000 a.u. and 298000 a.u. and 173000 a.u. and 242000 a.u. |
| UPLC-MS/MS, item: heme | EL4, C57BL/6 CES1-/- mice, EL4 tumour, tumour | 0.3 mg/kg/day DON equivalent, normalised to tissue mass | higher = more metabolite | 1.46e+07 a.u. and 1.86e+06 a.u. and 4.18e+06 a.u. and 2.94e+06 a.u. and 8.78e+06 a.u. and 1.63e+07 a.u. |
| UPLC-MS/MS metabolomics, item: gamma-glutamylisoleucine | C57BL/6 CES1-/- mice, EL4 tumour, EL4 tumour | 0.3 mg/kg/day DON equivalent, normalised to tissue mass |  | 318000 a.u. and 279000 a.u. and 178000 a.u. and 111000 a.u. and 336000 a.u. |
| UPLC-MS/MS metabolomics, item: N-acetylglucosamine/N-acetylgalactosamine | C57BL/6 CES1-/- mice, EL4 tumour, EL4 tumour | 0.3 mg/kg/day DON equivalent, normalised to tissue mass | higher = more metabolite | 1.03e+07 a.u. and 1.12e+07 a.u. and 8.48e+06 a.u. and 7.02e+06 a.u. and 8.41e+06 a.u. and 1.13e+07 a.u. |
